Assay results of several laboratories.
Each numbered part is a random draw from the data of one study; scales do not carry over between parts.

Study 1
Target: Sal-like protein 4, full length isoform B (SALL4, Homo sapiens, UniProt Q9UJQ4-2, residues 1-616)
Method: universal PBM
Form: double-stranded DNA, one strand shown
Matrix: in vitro
Tested at: not given
Notes: 8-mer, flanks averaged, mean of replicates
Direction: higher = stronger binding
Oligonucleotide	E-score
GAGGGAGA	-0.127
AGTAACAT	0.113
ACGGGCTG	-0.224
ACCAAAGG	-0.0924
CTAAGGTC	-0.0711
AGGTGACG	-0.237
CTGTTCAC	-0.148
TACTCGCA	-0.0116
TCTTACCA	-0.0174
AGCGGAAA	-0.122
AACGCGCT	-0.219
CCAAAAAC	0.102
TCAGGGAA	-0.00337
AGCAGCCA	-0.0244
ATCCTAGC	-0.00088
AGGCAAAT	0.0697
GTCGTAGA	0.0636
ACTCTTCG	-0.125
CAATCCGA	0.0448
CGGGTCTA	-0.0665
AAGCGAGG	-0.105
CACTAGGC	-0.118
AACAACTC	-0.0199
TCGAACCA	-0.198
CGGTCGTA	-0.132

Study 2
Target: RING finger protein unkempt homolog, zinc fingers 1-6, GST-SBP tag (UNK, Homo sapiens, UniProt Q9C0B0, residues 30-357)
UniProt Q9C0B0, sequence (30-357, looked up): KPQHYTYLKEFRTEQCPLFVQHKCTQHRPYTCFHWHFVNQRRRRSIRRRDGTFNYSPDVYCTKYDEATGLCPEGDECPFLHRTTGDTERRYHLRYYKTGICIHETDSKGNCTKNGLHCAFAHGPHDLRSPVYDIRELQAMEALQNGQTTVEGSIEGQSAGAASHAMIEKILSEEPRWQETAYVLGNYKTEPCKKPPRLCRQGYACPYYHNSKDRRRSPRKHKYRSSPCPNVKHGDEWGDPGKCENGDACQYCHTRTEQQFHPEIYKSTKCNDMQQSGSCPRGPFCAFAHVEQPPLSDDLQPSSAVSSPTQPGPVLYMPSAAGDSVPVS
Method: RNA Bind-n-Seq
Form: RNA
Matrix: in vitro
Tested at: not given
Notes: RNA with constant flanks, ends assumed
Reference: input RNA pool
Direction: higher = stronger binding
All sequences stand within: GGGAGUUCUACAGUCCGACGAUC … CAACAGAGGAUUGAGCAUCA
Oligonucleotide	bound/input enrichment
UUUCUCGGGAUUAUUGCUCUUCUGUCUAUAAAUUUUGAAUGAUACUGUGCCUUAAUUGGUUUUCACCGUUUAAGUGUGUAUCAUUAUCAAAGUUGAUUAAUUUGGCUUCAUAGUAUAAUG	0.625 ratio
ACCGCAUUCAUAGUAGAAAGAGACUUCGGCGGAAUCACUAAUGGGAAACCUGAAGAUAAAUCCGGCAUUCGAGGCUCCAACACAUGUGAGGUCCAUUUUGAAAAUACCAGAGUGCCUGUG	0.169 ratio
UAUCUUAUAUUGCAUCUCAUCUCUACAGUGUAUACAAGAAGAGAUGUACUUCCUCCCGGAAAAUUUACAGUUAACCUGAGUGGUUGCCCGCAGAACAGUACCUUCACGGAACACCUCUAC	0.357 ratio
GCUGAAGAUGACAGCAAAAUAGAUUCAUGAAGUUUUUUGCCUCCCACGUUGGGAAGUCCUCCGUGAAGAAUUCUCCCAUGGGCCGUUCACUGUCCUUCUCCAGGCCCCUAUCUGUCCUCC	0.577 ratio
CCCAAAACUAAUCUUCUGUACAAAGUUGUGUGCAUAUUGAGAUGAUUAGUUAAGGCAGUGCCGUUUUUUAAAUUUUUUCUGUAUAAAUUUCUUUCCUUCUUCCCCACCUCAGGCACCUAC	1.96 ratio
UGGGCGCAGCAGUGUGGGGACACUGCUCUUGGAUGCCCUGGCUUUCUCCUGAAAUCGUGCCUCCGCUUCAGUCUUGCAGCUAUCAGGAUGGGGUGAAGCUGUGGUGCUGCCCCCCACCCU	0.102 ratio
GCUGGAAACGGGCGGCGGCUCCACUUAGGGAUUCCUGAAGCAGUGUUUGUGGAAGAUGCCGAUUCUUUCAUGAAGCAGCCUGGGAAUGAGACUGCAGAUACAGUGUUAAAGAAGCUGGAU	0.184 ratio
AAGGAACUGGAAGUACCUCAUUUUCACCACGAGCUUGUAUAUGAAGCCAUUGUAAUGGUUUCCGAGUCAACUGGAGAAAGUGCAUUCAAGAUGAUCUUAGAUUUAUUAAAAUCCUUGUGG	0.577 ratio
GCCCAAGCUUGUCCCUGAACCACUGUGUGCCCAUAUCCUAGAGAAGGGGAGGGAGGGAGAACCGACAGAAUAUUUAUUACAAAUGCUAGAAAUAUAUUUAUUAUAUUAGGAAUCUCAUUU	15 ratio
CGAAUCCACUGCAGUAAAUCUUCAGUCCGCAGCAGGAGAAGCAGUCCUAAAAGGAAGCGCAACCGACACUGUUCAAGUCAUCAGUCACGUUCGAAGAGCCACCGAAGGAAAAGAUCCAGG	0.102 ratio
CAAAGCAUCCUAACAGGGUCGUUCCCAUACACAUUUGACCUGGUCAGCCUUUUCCAGGUGAACCGCCCCAGUUCUGACAUAAAGAAAGUUUUAUUUGUAUUUUACUACUGUUUGGUCAAU	0.342 ratio

Study 3
Target: Histone acetyltransferase KAT6A, both winged helices, GST fusion (KAT6A, Homo sapiens, UniProt Q92794, residues 1-181)
Method: protein binding microarray
Form: double-stranded DNA, one strand shown
Matrix: in vitro
Tested at: not given
Notes: 8-mer, flanks averaged, mean of 2 arrays, mostly near background
Reference: not given
Direction: higher = stronger binding
Construct (chain): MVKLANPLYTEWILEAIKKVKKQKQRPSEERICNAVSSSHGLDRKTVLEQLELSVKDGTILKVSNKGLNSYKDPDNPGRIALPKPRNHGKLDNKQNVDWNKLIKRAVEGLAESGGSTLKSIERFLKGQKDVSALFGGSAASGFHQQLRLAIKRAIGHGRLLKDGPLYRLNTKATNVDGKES
Oligonucleotide	E-score
CAGTTATC	0.00458
CTACCCTC	-0.138
ATTTCTAA	0.0155
ATAATGGG	-0.101
CCCCGTCA	0.126
AATTAAGA	-0.182
GGTCACGA	-0.0877
ACTGCGTA	0.151
ATCTTTCC	-0.0105
CCAAGTAC	0.0142
ACGTACCA	-0.167
AATATGAT	-0.117
ATTGCAAC	-0.077
AGCTGCTC	-0.144
GCGTAAGC	0.204
CTTGTCAA	0.153

Study 4
Target: RNA binding protein fox-1 homolog 2, RRM domain, GST-SBP tag (RBFOX2, Homo sapiens, UniProt O43251-10, residues 100-194)
Method: RNA Bind-n-Seq
Form: RNA
Matrix: in vitro
Tested at: 365 nM
Notes: natural RNA segment, single round, ends assumed
Reference: no-protein control
Direction: higher = stronger binding
All sequences stand within: GGGAGUUCUACAGUCCGACGAUC … UGGAAUUCUCGGGUGCCAA
Residues (chain): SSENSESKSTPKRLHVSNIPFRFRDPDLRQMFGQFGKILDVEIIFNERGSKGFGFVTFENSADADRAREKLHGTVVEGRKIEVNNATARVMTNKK
Oligonucleotide	RBNS enrichment (R)
AGACCAAAUCAGAAAACCCCCCACCCCAGGCUUCCCAAUAAGAUGAUCGGCACCAGAAUCCACUGUCAAUAGGCCCGUGGGUGAUCAUUACAAUUGCAAAUCUUUACUUA	0.436
GGGACAGCAUCUGCCCGACUUCCCGUAAAGGCAUAAAGGCACGCAGCCCAAAAGACGGGAAGAGGAGGCCUUUGGCUGCUUGUGUUGACAGCUUAAAGGGGUCUACACCC	3.67
GCCGUUAUUUACCCCUGAUGUUAUUUAUGACUAUGUGCCGAUUCCUGCUCGGGCUGUUUGCUGUUGGCUGGUAAUAAUAUAUUUGAUUUAAAUGCUGUUGACUGUGCUAU	1.14
AGCCGGAUUUGUGUAUCAAUUCCUCCGCUGACAGUCAGUUUCUAGAUGGAGACAGCCUGCUUAAAGCAAAUCCGAAUUUAAAUAGGACAUUUACAUCGGAAAAGUCUCUC	0.224
GAAUAAUUUAAUCUGUACAAUAAAUACAGUAUAGGCUGAUCAAGGAGCAUUUUGUAAGCUGCCCUCACACUAUAUAAUGGACAAUCUUUAUUCUGUUCUUUAGUAUAACA	0.608
AGUGACAGUUACUGCCCAGGGUCCAGCCAAGGACAGGUACAGGAAGGCAGAGAUCACUAUAGAGCCAAAAAUGACUGAAACUGAAGCAUCCAUCUGCUUCUCCAUUCCCU	0.273
GGUGGGGUUAUUGUUAGUAGGCGCAGCCUCAUUCCCACCACGAUCUGUUCCGCGUGGUUCCCGCCAAACCUCCCUCGGUCGCCGUGUUCUCCGCAAGCCUCCUGCAGCGC	0.315
AAGACUACUGGACUUCUAUCAAUGGUACUCUAAUCAGUCCUUAUUAUCCCAGCUUGCUGAGGGGCAGGGAGAGCGCCUCUUCCUCUGGGCAGCGCUAUCUAGAUAGGUAA	0.325
AGGUAUUUCAUAACAAAAAUAUGUAUUUCUUUUUUGUUAUUUUAUCUUGAAAACGGUACAUAUUUUAGUAUUUGUGCAGAAAAACAAGUCCUAAAGUAUUUGUUUUUAUU	0.737
UUUUGACCAAGGUGAGACUUUUGGCAUAAAUUAAAUGGAUUGUGGUCAGCAUUACAUUUGAGAGAAUACUAGACAUGACUACACUUAUUAGGGCUAGUGACUUUCUCAAA	0.519
GGGGCUUCCUUGGGACCAGUGCAAGGAAGUUCUGCUGUCCCUGGGAAGUCUCAGAACCAGGAAGGAAACCCUGUGGAGGCUGCCCUUUGACCUUUGGACGCCACCUGUAA	0.382
UCAGAACAGGCAGCUGUUGAGCUCGGGGUGUCUUCCCCAAGGCAUGUGGCUCAGCAGCAAGAAAGGCAAGUUGCUCCUGCUGGGGCCCUGGACUCUGCCUUAGCUCCCAC	1.66

Study 5
Target: Interferon regulatory factor 5, full length, phosphomimetic (IRF5, Homo sapiens, UniProt Q13568-2, residues 1-514, S451D/S453D/S456D/S462D)
Method: protein-binding microarray
Form: double-stranded DNA, one strand shown
Matrix: in vitro
Tested at: 940 nM top
Notes: 60-bp whole probe
With: salmon DNA 0.4 mg/ml
Reference: random background probes
Direction: higher = stronger binding
All sequences stand within: GCCTAGCAC … GTCTTGATTCGCTTGACGCTGCTG
Oligonucleotide	fitted relative affinity [z-score]
GTGTTTCTCAACCATTTTGTTGTGCTA	1.41
TTAGGTCTCGGGTTCGGTTAGTGCTAG	2.51
GACGGTCTCCTTCACCTGACGTGCTAG	0.449
CACGGACTGGGTCTCGGGACGTGCTAG	-0.201
TTAGGTATCGACTTTCGGTAAGTGCTA	6.14
TCATGAATGCCCTCTAACACTGTGCTA	0.391
CTAAATATCTTTGTTGAAAAGTGCTAG	0.353
TTAGGACTGGGCATCGGTTAGTGCTAG	-0.331
GACGATATCCGTATCGAGACGTGCTAG	0.685
GTAGTTTTCATTATTGTTTCGTGCTAG	2.79
TTAGGTTTCGTTATCCTTTAGTGCTAG	10.1
TCAATTTTGTCCTCCCCTACTGTGCTA	0.306
TCTCTGCTACCCTCTGAAAGTGTGCTA	3.91
CTGCATCTGATTTCTCAAACAGTGCTA	0.407
GACGATTCCAGTTTCGAGAGGTGCTAG	3.95
GCCGGTATCCTTATCCTGACGTGCTAG	0.179
GACGGTGTCGGTTCCGGGACGTGCTAG	0.703
TTAGGACCGGGGTTTCGGTTAGTGCTA	5.22
GGAAGCAGTGAGAAGGTGGCGTGCTAG	-0.492
TTAGGTTTCGGGTTTCCGTTAGTGCTA	10.2
TTAGATTCCAGTTTCGATTTGTGCTAG	8.32
GACGAACTGAGACTGGGGACGTGCTAG	-0.14
GACGATATCGGGTTTCGGGACGTGCTA	2.56
TGATCCAAAAAGTGTGAGAAGTGCTAG	-0.358
TCAGCTCTGTGCATAGTACTGTGCTAG	-0.269
